Results gathered from unrelated publications.
Protocols differ between the studies behind these lines. ± gives the spread as reported.

Compound | cell line | effect on | method | time | temperature | notes | IC50
CCC(C)C1OC(=O)C(NC(=O)c2cccc(NC=O)c2O)C(C)OC(=O)C(C(C)CC)OC(=O)C(C)(C)C(=O)C(Cc2ccccc2)OC1=O (stereo not shown) | PC-9 | cell growth or viability | CCK-8 | 72 h |  |  | 30.8 nM
CC[C@H](C)[C@H](NC(=O)[C@@H](N)Cc1ccc(O)cc1)C(=O)N[C@@H](Cc1ccccc1)C(=O)N[C@@H](CC(N)=O)C(=O)N[C@@H](CC(C)C)C(=O)O | T47D | cell proliferation | tetrazolium |  |  |  | 0.07 nM
Cc1cc(C)c(-n2c[n+](-c3c(C)cc(C)cc3C)c3c2-c2cccc4cccc-3c24)c(C)c1.[Cl][Pd-]([Cl])[CH2]C=Cc1ccccc1 | PSN1 | cell growth or viability | MTT | 72 h |  |  | 5000 nM
COC(=O)C1CN1S(=O)(=O)c1ccc(N)cc1 (stereo not shown) | Caco-2 | cell growth or viability | MTT | 48 h |  |  | 200000 nM
[CH3][Ti+2][O]C(=O)c1ccc([S][Au][PH](c2ccccc2)(c2ccccc2)[c-]2cccc2)cc1.[Fe+2].c1cc[cH-]c1.c1cc[cH-]c1.c1cc[cH-]c1 | CAKI-1 | cell growth or viability | XTT | 72 h |  |  | 4110 nM
CC[C@@H](C)[C@@H](NC(=O)[C@@H](CCCCN)NC(=O)[C@H](NC(=O)[C@@H](CCC(N)=O)NC(=O)[C@@H](CCCNC(=N)N)NC(=O)[C@@H](CC(C)C)NC(=O)CNC(=O)[C@@H](Cc1ccccc1)NC(=O)CNC(=O)[C@@H](Cc1ccc(O)cc1)NC(=O)CNC(=O)[C@@H](CCCCN)NC(=O)[C@H](NC(=O)[C@@H](Cc1ccccc1)NC(=O)[C@H](NC(=O)[C@@H](CC(=O)O)NC(=O)[C@@H](CCCNC(=N)N)NC(=O)[C@@H](C)NC(=O)[C@@H](CO)NC(=O)[C@@H](CCCCN)NC(=O)CNC(=O)[C@@H](CC(C)C)NC(=O)[C@@H](CC(=O)O)NC(=O)[C@@H](C)NC(=O)[C@@H](Cc1ccc(O)cc1)NC(=O)[C@H](NC(=O)[C@H]1CCCN1C(=O)[C@H]1CCCN1C(=O)[C@H](NC(=O)[C@@H](C)NC(=O)[C@H](N)CCSC)C(C)C)[C@H](C)O)C(C)C)[C@H](C)O)[C@H](C)CC)C(=O)N[C@H](Cc1c[nH]c2ccccc12)C(=O)N[C@H](Cc1ccccc1)C(=O)N[C@H](CCC(N)=O)C(=O)N[C@H](CC(N)=O)C(=O)N[C@H](CCCNC(=N)N)C(=O)N[C@H](CCCNC(=N)N)C(=O)N[C@H](CCSC)C(=O)N[C@H](CCCCN)C(=O)N[C@H](Cc1c[nH]c2ccccc12)C(=O)N[C@H](CCCCN)C(=O)N[C@H](CCCCN)C(=O)O | CLL patient PBMCs | cell death | PI staining flow cytometry | 90 min | room temperature | serum-free medium | 1500 nM
O=C(Cc1ccc2ccccc2c1)N[C@H](Cc1ccccc1)C(=O)N[C@H](Cc1ccccc1)C(=O)N[C@H](Cc1ccc(OP(=O)(O)O)cc1)C(=O)N[C@H](Cc1ccc(OP(=O)(O)O)cc1)C(=O)O | SAOS-2 | cell growth or viability | MTT |  |  |  | 326 µg/mL
C[C@@H]1N=C(c2ccccc2)c2cc(C#CCCCC(=O)NO)ccc2N(C)C1=O | KG-1a | apoptosis | flow cytometry | 48 h |  |  | 1400 to 2100 nM
Cc1cc(C)c(-n2ccn(-c3c(C)cc(C)cc3C)c2=[Se])c(C)c1.[Cl][Ag] | A2780 ADR |  | MTT | 72 h |  |  | 300 ± 30 nM
CNC(=O)c1cc(Oc2ccc(NC(=O)c3ccc(-c4ccc(OC(=O)CCC(=O)OC5OC6OC7(C)CCC8C(C)CCC(C5C)C68OO7)cc4)cn3)cc2)ccn1 (stereo not shown) | Huh-7 | cell growth or viability | MTT | 72 h |  |  | 3180 nM

Some of these lines once more:
Compound | cell line | effect on | method | time | temperature | notes | IC50
O=C(Cc1ccc2ccccc2c1)N[C@H](Cc1ccccc1)C(=O)N[C@H](Cc1ccccc1)C(=O)N[C@H](Cc1ccc(OP(=O)(O)O)cc1)C(=O)N[C@H](Cc1ccc(OP(=O)(O)O)cc1)C(=O)O | SAOS-2 | cell growth or viability | MTT |  |  |  | 326 µg/mL
